# Measurements from different studies.
# Every numbered part comes from another study and shows a few of its results, in no order.
# Sequence of UniProt O75460 (whole entry, looked up): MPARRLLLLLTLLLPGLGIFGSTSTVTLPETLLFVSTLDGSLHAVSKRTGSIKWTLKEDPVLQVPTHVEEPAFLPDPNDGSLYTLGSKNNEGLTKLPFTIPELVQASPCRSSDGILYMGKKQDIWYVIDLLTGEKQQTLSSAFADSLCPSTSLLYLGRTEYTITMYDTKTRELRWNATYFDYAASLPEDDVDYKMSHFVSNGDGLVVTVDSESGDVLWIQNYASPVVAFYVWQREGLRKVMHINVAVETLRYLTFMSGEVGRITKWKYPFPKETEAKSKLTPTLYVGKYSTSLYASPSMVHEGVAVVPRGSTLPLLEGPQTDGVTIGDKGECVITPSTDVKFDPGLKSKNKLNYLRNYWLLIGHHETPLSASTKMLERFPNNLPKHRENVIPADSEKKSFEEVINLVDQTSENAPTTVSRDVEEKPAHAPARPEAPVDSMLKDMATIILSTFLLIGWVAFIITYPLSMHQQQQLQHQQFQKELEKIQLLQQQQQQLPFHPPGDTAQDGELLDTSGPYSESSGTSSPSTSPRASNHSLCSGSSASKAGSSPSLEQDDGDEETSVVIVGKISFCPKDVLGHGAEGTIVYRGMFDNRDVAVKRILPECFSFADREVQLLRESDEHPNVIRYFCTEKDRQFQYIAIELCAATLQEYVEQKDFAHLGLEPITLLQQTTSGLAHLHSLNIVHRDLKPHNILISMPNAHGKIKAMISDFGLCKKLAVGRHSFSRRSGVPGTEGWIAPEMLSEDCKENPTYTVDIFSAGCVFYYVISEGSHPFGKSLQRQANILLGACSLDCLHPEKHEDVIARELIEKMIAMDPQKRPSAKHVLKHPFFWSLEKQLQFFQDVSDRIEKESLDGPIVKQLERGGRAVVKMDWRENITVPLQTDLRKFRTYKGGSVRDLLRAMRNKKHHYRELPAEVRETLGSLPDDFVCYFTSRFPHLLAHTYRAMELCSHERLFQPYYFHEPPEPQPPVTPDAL
# Sequence of UniProt Q12851 (whole entry, looked up): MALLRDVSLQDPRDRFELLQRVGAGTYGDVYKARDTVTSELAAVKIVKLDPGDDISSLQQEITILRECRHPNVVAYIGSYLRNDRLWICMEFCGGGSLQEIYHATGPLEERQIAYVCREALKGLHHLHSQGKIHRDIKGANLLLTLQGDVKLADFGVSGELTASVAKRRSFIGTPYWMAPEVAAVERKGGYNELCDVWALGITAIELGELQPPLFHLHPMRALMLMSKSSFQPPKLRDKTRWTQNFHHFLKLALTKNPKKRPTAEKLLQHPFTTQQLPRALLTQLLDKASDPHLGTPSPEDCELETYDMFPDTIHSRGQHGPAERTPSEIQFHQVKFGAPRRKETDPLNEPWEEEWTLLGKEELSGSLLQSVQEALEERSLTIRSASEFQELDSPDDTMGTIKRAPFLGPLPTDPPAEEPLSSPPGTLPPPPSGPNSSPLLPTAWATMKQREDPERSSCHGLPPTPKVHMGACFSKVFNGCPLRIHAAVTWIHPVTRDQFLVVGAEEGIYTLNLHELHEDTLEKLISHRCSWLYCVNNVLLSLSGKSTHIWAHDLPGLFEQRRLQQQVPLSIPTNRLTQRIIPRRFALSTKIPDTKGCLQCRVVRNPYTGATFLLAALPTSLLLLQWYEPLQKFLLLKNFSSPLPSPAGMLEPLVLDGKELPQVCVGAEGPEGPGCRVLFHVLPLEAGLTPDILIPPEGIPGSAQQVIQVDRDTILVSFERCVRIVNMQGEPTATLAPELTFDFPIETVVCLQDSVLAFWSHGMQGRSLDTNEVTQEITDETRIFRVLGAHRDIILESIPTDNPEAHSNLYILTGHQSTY
# Sequence of UniProt Q15349 (whole entry, looked up): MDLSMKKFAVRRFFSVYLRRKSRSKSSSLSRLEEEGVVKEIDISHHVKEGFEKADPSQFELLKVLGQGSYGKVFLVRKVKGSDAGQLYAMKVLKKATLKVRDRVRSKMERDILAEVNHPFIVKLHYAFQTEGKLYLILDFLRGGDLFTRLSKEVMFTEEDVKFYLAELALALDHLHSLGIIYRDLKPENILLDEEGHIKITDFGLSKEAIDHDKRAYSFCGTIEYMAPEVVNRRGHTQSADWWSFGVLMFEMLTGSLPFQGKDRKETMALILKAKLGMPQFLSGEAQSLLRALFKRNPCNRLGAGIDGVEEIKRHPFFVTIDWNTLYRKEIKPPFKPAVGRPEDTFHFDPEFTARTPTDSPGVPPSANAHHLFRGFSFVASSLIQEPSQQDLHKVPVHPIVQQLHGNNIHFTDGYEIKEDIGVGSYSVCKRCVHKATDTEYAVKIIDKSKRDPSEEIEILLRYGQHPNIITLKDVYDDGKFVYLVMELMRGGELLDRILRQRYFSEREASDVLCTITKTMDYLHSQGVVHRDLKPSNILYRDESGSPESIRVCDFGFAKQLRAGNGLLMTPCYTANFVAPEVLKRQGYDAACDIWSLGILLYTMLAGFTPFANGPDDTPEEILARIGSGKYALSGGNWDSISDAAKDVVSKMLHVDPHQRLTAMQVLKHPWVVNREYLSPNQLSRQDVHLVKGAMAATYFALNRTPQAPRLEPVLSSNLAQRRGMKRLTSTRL
# Sequence of UniProt Q14680 (whole entry, looked up): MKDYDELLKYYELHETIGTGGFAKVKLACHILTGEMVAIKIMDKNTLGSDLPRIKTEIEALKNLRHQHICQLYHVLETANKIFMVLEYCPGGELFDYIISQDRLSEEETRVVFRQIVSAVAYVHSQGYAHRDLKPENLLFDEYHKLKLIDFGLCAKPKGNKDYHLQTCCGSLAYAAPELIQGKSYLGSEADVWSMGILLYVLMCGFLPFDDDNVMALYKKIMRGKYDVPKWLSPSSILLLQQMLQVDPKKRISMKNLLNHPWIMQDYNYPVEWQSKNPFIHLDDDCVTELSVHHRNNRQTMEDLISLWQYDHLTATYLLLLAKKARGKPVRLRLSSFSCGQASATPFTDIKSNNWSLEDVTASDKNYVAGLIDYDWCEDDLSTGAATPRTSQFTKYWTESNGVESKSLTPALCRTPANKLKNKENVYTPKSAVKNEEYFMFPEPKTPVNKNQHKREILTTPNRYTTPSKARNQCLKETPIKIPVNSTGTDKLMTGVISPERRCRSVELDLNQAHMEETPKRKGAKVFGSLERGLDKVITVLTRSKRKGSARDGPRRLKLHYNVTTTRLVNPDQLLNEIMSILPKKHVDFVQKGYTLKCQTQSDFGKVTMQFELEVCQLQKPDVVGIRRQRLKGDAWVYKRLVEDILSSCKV
# Sequence of UniProt Q9H0K1 (whole entry, looked up): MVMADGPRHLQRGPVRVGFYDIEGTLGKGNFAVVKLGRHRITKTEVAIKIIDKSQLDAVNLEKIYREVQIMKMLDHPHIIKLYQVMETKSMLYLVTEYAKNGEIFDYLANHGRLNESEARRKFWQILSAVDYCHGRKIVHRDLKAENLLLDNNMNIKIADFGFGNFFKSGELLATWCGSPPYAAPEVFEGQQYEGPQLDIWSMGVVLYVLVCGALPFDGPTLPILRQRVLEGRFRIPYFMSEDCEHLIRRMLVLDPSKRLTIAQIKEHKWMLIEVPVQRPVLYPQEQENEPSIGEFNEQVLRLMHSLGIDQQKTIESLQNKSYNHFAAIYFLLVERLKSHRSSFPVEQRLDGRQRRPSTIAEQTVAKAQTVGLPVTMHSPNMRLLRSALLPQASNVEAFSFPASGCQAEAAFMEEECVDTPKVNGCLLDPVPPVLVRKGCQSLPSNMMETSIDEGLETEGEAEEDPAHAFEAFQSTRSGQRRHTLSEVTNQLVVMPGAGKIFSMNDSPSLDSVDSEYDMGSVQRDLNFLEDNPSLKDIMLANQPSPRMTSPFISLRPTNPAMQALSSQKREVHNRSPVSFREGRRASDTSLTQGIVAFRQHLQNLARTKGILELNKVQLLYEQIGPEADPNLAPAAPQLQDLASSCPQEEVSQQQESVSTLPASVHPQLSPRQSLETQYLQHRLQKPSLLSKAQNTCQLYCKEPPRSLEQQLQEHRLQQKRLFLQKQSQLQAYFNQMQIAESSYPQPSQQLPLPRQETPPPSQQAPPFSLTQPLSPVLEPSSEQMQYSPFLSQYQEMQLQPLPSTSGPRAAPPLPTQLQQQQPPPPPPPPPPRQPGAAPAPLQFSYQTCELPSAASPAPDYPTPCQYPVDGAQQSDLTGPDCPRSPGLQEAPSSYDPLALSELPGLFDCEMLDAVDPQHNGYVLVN

# Sample 1
# Cell line: HaCaT
# Tested at: 100 µM
# Time: 18 h
SMILES,viability
N[C@H]1C(O)O[C@H](CO)[C@@H](O)[C@@H]1O (stereo partly shown),101%
CC1=CC(=O)c2ccccc2C1=O,21.4%
Nc1c(CC(=O)O)cccc1C(=O)c1ccc(Br)cc1,107%
O=C(O)c1ccccc1O,114%
Brc1c(NC2=NCCN2)ccc2nccnc12,118%
Cn1cnc2c1c(=O)[nH]c(=O)n2C,95.7%
CCOC(=O)n1ccn(C)c1=S,108%
CC(=O)N1CCN(c2ccc(OC[C@@H]3CO[C@@](Cn4ccnc4)(c4ccc(Cl)cc4Cl)O3)cc2)CC1 (racemic),15.6%
OC[C@H]1O[C@H](OC[C@H]2O[C@H](OC[C@H]3O[C@H](O[C@]4(CO)O[C@H](CO)[C@@H](O)[C@@H]4O)[C@H](O)[C@@H](O)[C@@H]3O)[C@H](O)[C@@H](O)[C@H]2O)[C@H](O)[C@@H](O)[C@H]1O,87%
CN1CCN(C2=Nc3ccccc3Oc3ccc(Cl)cc32)CC1,32.5%
CCN(CC)CCOCCOC(=O)C1(c2ccccc2)CCCC1,107%
CCOC(=O)C1=C[C@@H](OC(CC)CC)[C@H](NC(C)=O)[C@@H](N)C1,113%

# Sample 2
# Target: Calcium/calmodulin-dependent protein kinase type II subunit alpha (CAMK2A, Homo sapiens, UniProt Q9UQM7)
# Sequence of UniProt Q9UQM7 (whole entry, looked up): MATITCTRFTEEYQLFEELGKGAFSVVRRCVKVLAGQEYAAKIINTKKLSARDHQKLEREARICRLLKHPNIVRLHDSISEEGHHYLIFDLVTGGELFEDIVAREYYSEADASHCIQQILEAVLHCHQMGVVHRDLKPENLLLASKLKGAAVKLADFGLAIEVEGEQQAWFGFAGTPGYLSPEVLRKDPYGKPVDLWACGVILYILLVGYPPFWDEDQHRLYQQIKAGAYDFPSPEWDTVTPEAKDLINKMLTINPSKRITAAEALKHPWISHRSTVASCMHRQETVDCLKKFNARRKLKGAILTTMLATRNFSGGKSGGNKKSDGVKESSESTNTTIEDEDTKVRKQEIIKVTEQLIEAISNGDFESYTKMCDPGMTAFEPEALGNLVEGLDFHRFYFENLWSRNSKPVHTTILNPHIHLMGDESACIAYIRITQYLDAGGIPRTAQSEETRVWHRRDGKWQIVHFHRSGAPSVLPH
# Read-out: enzyme activity
# Mode: inhibitor
# Tested at: 10 µM
SMILES,inhibition
c1ccc(CC2=NCCN2)cc1,-7%
Cc1cc(=O)oc2cc(O)cc(O)c12,27%
CCOC(N)=O,-16%
CC[C@@H](N)C(=O)O,24%
CC(C)NC(=N)NC(=N)Nc1ccc(Cl)cc1,-3%
OC[C@H]1O[C@@H](Oc2cc(O)cc(/C=C/c3ccc(O)cc3)c2)[C@H](O)[C@@H](O)[C@@H]1O,-5%
C[C@H](CCC(=O)O)[C@H]1CC[C@H]2[C@@H]3[C@H](O)C[C@H]4C[C@H](O)CC[C@]4(C)[C@H]3C[C@H](O)[C@]12C,-34%
CCCCCCO[C@@H](C)c1cccc(-c2csc(NC(=O)c3cc(Cl)c(/C=C(\C)C(=O)O)c(Cl)c3)n2)c1OC,-2%
COc1c(CC=C(C)C)c(O)cc2oc(=O)c3c4ccc(O)cc4oc3c12,-15%
COc1ccc(-c2cc(=O)c3c(O)c(OC)c(OC)cc3o2)cc1OC,1%

# Sample 3
# Structure (SMILES): C[C@@H]1CN(c2cc(-c3nn(C)c4ccc(OC5(C)CC5)cc34)ncn2)C[C@H](C)O1
# Tested at: 1 µM
target,read-out,technique,remaining binding [%]
"Receptor-type tyrosine-protein kinase FLT3 (FLT3, Homo sapiens, UniProt P36888, D835H)",cell-free assay,competition with immobilised ligand,84
"Serine/threonine-protein kinase Nek5 (NEK5, Homo sapiens, UniProt Q6P3R8)",cell-free assay,competition with immobilised ligand,100
"Activin receptor type-1B (ACVR1B, Homo sapiens, UniProt P36896)",cell-free assay,competition with immobilised ligand,78
"Mitogen-activated protein kinase kinase kinase 15 (MAP3K15, Homo sapiens, UniProt Q6ZN16)",cell-free assay,competition with immobilised ligand,80
"Maternal embryonic leucine zipper kinase (MELK, Homo sapiens, UniProt Q14680)",cell-free assay,competition with immobilised ligand,55
"Mitogen-activated protein kinase kinase kinase kinase 2 (MAP4K2, Homo sapiens, UniProt Q12851)",cell-free assay,competition with immobilised ligand,81
"Hepatocyte growth factor receptor (MET, Homo sapiens, UniProt P08581, M1250T)",cell-free assay,competition with immobilised ligand,93
"Epidermal growth factor receptor (EGFR, Homo sapiens, UniProt P00533, del747-750/T751S)",cell-free assay,competition with immobilised ligand,67
"Cyclin-dependent kinase 13 (CDK13, Homo sapiens, UniProt Q14004)",cell-free assay,competition with immobilised ligand,86
"Epidermal growth factor receptor (EGFR, Homo sapiens, UniProt P00533, T790M)",cell-free assay,competition with immobilised ligand,100
"AP2-associated protein kinase 1 (AAK1, Homo sapiens, UniProt Q2M2I8)",binding,,84
"Ribosomal protein S6 kinase alpha-2, N-terminal kinase domain (RPS6KA2, Homo sapiens, UniProt Q15349)",cell-free assay,competition with immobilised ligand,88
"Serine/threonine-protein kinase/endoribonuclease IRE1 (ERN1, Homo sapiens, UniProt O75460)",cell-free assay,competition with immobilised ligand,69
"Serine/threonine-protein kinase SIK2 (SIK2, Homo sapiens, UniProt Q9H0K1)",cell-free assay,competition with immobilised ligand,100

# Sample 4
# Target: Phosphorylase b kinase gamma catalytic chain, liver/testis isoform (PHKG2, Homo sapiens, UniProt P15735)
# Read-out: enzyme activity
# Mode: inhibitor
# Tested at: 0.5 µM
# Relative to: control
# Residues (P15735 1-406): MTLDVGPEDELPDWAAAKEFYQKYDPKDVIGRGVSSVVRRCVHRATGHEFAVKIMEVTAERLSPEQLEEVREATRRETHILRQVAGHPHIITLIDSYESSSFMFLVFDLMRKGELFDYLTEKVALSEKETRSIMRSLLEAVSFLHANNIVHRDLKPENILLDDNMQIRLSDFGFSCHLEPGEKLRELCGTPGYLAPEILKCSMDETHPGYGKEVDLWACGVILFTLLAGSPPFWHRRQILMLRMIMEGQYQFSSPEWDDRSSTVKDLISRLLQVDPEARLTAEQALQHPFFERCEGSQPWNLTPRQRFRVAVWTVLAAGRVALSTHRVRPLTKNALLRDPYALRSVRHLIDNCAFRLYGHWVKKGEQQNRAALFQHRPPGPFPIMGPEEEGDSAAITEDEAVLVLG
Structure (SMILES),remaining activity
c1ccc2c(-c3ccncc3)c[nH]c2c1,101%
O=Nc1c(-c2c(O)[nH]c3cc(Br)ccc23)[nH]c2ccccc12,92.5%
COc1cccc(-c2cc(=O)c3ccccc3o2)c1N,117%
CN1CCN(c2ccc3nc(-c4c(N)c5c(F)cccc5[nH]c4=O)[nH]c3c2)CC1,87.6%
O=C(c1cc2cc(O)ccc2[nH]1)c1cc2cc(O)ccc2[nH]1,105%
COc1ccc2c(c1)c(C1=C(c3c[nH]c4ccccc34)C(=O)NC1=O)cn2CCCN(C)C,98.3%
CCCNC(=O)Nc1ccc(Oc2ncnc3cc(OC)c(OC)cc23)cc1Cl,84.1%
CN(C)S(=O)(=O)c1ccc2c(c1)/C(=C/c1cc3c([nH]1)CCCC3)C(=O)N2,78.8%
O=C1Nc2ccc(Br)cc2/C1=C/c1cc2c([nH]1)CCCC2,90.5%
O=C1Cc2c([nH]c3ccc(Br)cc23)-c2ccccc2N1,98.9%
CCCCc1c(-c2ccc(OC)cc2)[nH]c2nccnc12,106%
N#Cc1cnc2cnc(NCc3cccnc3)cc2c1Nc1ccc(F)c(Cl)c1,88.3%
O=C1NC(=O)c2c1c1c3ccccc3[nH]c1c1[nH]c3cc(Br)ccc3c21,94.8%
O=c1cc(N2CCOCC2)oc2c(-c3ccccc3)cccc12,97.2%
c1ccc(-c2n[nH]c3c2oc2ccccc23)cc1,112%
O=C1NC(=O)c2c1c1c3ccccc3[nH]c1n1cncc21,108%
Cc1ccc(S(=O)(=O)/C=C/C#N)cc1,109%
O=C1Nc2ccccc2/C1=C\c1c(Cl)[nH]c2ccccc12,84.2%
Cc1cc(Nc2cc(N3CCN(C)CC3)nc(Sc3ccc(NC(=O)C4CC4)cc3)n2)[nH]n1,90.6%

# A few entries again (sample 4):
Structure (SMILES),remaining activity
O=C1NC(=O)c2c1c1c3ccccc3[nH]c1n1cncc21,108%
COc1cccc(-c2cc(=O)c3ccccc3o2)c1N,117%
Cc1ccc(S(=O)(=O)/C=C/C#N)cc1,109%
N#Cc1cnc2cnc(NCc3cccnc3)cc2c1Nc1ccc(F)c(Cl)c1,88.3%
CN1CCN(c2ccc3nc(-c4c(N)c5c(F)cccc5[nH]c4=O)[nH]c3c2)CC1,87.6%
c1ccc2c(-c3ccncc3)c[nH]c2c1,101%
O=Nc1c(-c2c(O)[nH]c3cc(Br)ccc23)[nH]c2ccccc12,92.5%
